Measured values of several laboratories.
Every numbered part comes from another study and shows a few of its results, in no order. “And” joins repeats or separate records; there may be more than shown.
UniProt P42336, sequence (whole entry, unmodified, looked up): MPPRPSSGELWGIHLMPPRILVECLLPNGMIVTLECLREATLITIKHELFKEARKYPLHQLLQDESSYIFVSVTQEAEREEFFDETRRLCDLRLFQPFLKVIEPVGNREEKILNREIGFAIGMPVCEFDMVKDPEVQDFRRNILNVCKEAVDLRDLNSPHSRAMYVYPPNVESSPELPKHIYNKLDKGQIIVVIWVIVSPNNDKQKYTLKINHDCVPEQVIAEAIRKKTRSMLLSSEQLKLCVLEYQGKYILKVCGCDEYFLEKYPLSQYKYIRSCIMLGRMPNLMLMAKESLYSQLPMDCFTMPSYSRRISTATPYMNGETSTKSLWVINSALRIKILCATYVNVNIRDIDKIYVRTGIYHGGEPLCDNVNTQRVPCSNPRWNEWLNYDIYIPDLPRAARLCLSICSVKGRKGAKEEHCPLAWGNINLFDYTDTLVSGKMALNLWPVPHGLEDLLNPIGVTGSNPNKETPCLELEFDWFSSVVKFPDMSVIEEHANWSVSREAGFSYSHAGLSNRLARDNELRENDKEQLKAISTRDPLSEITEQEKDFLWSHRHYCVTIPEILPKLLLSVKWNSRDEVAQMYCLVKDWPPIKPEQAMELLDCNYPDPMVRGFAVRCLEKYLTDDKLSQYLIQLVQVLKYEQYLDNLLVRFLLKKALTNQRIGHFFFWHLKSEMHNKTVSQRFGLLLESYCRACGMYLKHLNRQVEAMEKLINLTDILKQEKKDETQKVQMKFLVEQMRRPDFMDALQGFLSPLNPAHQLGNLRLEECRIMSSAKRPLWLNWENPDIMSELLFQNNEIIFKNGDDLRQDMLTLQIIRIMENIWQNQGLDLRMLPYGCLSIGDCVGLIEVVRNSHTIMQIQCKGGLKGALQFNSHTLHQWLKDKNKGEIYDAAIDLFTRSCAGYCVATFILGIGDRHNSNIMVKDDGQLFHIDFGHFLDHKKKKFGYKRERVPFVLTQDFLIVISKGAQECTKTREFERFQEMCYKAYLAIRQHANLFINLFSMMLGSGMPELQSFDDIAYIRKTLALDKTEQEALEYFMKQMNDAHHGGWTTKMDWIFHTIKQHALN
UniProt O43353, sequence (whole entry, looked up): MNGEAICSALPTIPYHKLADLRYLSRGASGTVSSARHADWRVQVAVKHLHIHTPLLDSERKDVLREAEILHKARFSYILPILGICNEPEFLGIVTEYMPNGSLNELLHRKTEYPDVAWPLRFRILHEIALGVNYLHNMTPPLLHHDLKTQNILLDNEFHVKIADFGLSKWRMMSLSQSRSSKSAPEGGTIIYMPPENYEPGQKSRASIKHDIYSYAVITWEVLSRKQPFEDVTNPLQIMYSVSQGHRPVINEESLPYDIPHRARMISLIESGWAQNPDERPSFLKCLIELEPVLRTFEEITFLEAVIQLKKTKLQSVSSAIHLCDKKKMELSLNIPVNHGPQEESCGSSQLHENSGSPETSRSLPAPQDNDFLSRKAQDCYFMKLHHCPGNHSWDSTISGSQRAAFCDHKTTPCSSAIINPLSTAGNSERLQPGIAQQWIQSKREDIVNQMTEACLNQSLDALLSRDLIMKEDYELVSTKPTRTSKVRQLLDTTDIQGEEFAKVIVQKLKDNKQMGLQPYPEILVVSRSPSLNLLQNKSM
UniProt Q96PN8, sequence (whole entry, looked up): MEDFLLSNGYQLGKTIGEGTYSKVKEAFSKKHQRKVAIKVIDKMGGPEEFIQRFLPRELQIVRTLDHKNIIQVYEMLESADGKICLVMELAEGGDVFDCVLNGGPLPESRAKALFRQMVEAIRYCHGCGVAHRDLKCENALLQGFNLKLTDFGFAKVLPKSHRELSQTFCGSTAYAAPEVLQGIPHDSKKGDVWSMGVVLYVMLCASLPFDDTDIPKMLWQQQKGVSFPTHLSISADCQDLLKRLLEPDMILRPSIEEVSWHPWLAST

Sample 1 — effect on: enzyme activity; mode: inhibitor; concentration: 77 µM; baseline: untreated; quantity: remaining activity
Target: DNA polymerase theta, ATPase domain (POLQ, Homo sapiens, UniProt O75417)
UniProt O75417, sequence (whole entry, unmodified, looked up): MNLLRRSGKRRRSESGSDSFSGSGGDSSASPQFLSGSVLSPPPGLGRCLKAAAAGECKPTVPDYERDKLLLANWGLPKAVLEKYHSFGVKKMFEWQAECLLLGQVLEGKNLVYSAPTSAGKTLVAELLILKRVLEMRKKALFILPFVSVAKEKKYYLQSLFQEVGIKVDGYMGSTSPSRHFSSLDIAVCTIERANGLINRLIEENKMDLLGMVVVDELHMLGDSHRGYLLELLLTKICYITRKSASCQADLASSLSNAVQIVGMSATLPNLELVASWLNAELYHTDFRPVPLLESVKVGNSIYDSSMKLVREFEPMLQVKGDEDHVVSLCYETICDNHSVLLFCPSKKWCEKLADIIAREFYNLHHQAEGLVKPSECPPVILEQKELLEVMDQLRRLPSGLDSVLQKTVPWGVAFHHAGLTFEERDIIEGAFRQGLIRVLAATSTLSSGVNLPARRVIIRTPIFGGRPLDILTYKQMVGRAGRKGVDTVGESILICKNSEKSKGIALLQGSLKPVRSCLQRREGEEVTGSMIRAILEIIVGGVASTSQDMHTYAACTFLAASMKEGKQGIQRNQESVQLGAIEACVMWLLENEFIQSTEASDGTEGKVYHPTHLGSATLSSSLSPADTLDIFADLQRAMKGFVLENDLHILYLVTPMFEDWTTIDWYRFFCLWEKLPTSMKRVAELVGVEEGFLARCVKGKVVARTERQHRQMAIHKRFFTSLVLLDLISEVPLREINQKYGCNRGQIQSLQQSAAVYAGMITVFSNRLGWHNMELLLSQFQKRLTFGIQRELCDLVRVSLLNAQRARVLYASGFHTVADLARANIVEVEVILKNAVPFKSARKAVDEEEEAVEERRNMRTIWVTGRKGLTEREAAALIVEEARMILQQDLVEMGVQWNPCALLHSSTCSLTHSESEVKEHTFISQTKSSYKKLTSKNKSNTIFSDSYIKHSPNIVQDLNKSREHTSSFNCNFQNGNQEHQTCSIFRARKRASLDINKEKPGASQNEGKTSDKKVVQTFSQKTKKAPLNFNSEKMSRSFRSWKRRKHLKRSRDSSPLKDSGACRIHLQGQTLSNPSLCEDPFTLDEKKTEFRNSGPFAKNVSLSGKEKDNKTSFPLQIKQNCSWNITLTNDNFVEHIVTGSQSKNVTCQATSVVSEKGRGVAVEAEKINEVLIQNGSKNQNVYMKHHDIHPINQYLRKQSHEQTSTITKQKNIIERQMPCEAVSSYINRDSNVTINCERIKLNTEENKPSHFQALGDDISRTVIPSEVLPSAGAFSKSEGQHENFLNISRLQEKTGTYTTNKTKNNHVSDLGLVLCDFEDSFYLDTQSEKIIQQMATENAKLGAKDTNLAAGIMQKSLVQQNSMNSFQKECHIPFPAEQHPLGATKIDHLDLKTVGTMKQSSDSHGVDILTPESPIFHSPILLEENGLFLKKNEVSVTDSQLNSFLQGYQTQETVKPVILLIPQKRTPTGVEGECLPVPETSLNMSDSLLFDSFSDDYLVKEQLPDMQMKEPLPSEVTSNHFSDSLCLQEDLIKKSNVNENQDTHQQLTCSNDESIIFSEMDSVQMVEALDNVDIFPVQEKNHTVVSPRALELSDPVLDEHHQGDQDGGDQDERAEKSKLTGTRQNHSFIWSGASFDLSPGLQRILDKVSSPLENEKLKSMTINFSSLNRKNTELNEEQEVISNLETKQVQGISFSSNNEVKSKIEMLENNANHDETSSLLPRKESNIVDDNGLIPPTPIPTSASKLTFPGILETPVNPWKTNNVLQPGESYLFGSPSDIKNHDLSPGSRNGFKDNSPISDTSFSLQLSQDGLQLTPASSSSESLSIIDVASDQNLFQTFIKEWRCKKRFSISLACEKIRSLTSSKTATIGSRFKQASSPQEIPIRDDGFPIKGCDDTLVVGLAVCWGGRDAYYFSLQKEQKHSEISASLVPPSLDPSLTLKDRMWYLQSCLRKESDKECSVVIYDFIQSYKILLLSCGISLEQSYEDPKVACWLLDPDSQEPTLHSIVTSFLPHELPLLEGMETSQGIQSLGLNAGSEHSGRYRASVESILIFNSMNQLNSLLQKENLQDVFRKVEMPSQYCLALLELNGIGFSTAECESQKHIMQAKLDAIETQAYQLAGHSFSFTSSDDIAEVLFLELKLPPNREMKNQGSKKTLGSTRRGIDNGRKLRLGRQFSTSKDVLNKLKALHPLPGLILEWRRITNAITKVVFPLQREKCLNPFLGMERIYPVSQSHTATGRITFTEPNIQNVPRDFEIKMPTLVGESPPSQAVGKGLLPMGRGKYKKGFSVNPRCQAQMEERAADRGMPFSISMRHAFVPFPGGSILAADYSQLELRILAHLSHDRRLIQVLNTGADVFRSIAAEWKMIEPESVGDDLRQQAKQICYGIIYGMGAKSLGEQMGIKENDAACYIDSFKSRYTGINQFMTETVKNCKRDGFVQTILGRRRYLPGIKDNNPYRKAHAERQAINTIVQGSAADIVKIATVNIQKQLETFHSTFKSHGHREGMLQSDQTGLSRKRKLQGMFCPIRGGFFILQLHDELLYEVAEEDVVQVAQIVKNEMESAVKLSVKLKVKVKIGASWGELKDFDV
CC1(C)O[C@@H]2C[C@H]3[C@@H]4C[C@H](F)C5=CC(=O)CC[C@]5(C)[C@H]4[C@@H](O)C[C@]3(C)[C@]2(C(=O)CO)O1: 97.3%
C[C@H](CCC(=O)O)[C@H]1CC[C@H]2[C@@H]3C(=O)C[C@@H]4CC(=O)CC[C@]4(C)[C@H]3CC(=O)[C@]12C: 95%
CN1CC(=O)N2[C@H](c3ccc4c(c3)OCO4)c3[nH]c4ccccc4c3C[C@@H]2C1=O: 102%
COC(=O)N[C@H](C(=O)N[C@@H](Cc1ccccc1)[C@@H](O)CN(Cc1ccc(-c2ccccn2)cc1)NC(=O)[C@@H](NC(=O)OC)C(C)(C)C)C(C)(C)C: 101%
COCC(=O)NC/C=C/c1ccc2ncnc(Nc3ccc(Oc4ccc(C)nc4)c(C)c3)c2c1: 105% and 104% and 106%
COCc1nc2c([nH]1)c(=O)n(C)c(=O)n2CC(C)C: 102%
O=C(NC(NC(=S)Nc1ccc(F)c([N+](=O)[O-])c1)C(Cl)(Cl)Cl)C(c1ccccc1)c1ccccc1 (centres unmarked): 98.5%
N#Cc1ccc2[nH]cc(CCCCN3CCN(c4ccc5oc(C(N)=O)cc5c4)CC3)c2c1: 103%
O=C(Nc1ccccc1)c1ccccc1O: 91.2%
COC(=O)N[C@H](C(=O)N1CCC[C@H]1c1ncc(-c2ccc(-c3ccc(-c4cnc([C@@H]5CCCN5C(=O)[C@@H](NC(=O)OC)C(C)C)[nH]4)cc3)cc2)[nH]1)C(C)C: 102%
O=C(O)CCCc1c[nH]c2ccccc12: 98.1%
O=S(=O)(c1ccccc1)c1cnc2c(N3CCNCC3)cccc2c1: 101%
COc1ccc(-c2cc(=O)c3c(O)cc(O[C@@H]4O[C@H](CO[C@@H]5O[C@@H](C)[C@H](O)[C@@H](O)[C@H]5O)[C@@H](O)[C@H](O)[C@H]4O)cc3o2)cc1O: 96.4%
CNC(=O)[C@H](Cc1c[nH]c2ccccc12)NC(=O)[C@@H](CC(=O)NO)CC(C)C: 99.1%
CN(C/C=C/c1ccccc1)Cc1cccc2ccccc12: 102%
CC(C)(C)OC(=O)N[C@H]1CCCCC/C=C\[C@@H]2C[C@@]2(C(=O)NS(=O)(=O)C2CC2)NC(=O)[C@@H]2C[C@@H](OC(=O)N3Cc4cccc(F)c4C3)CN2C1=O: 92.6%

Sample 2 — SMILES: COc1cc2ncnc(Nc3ccc(O)c(Br)c3)c2cc1OC; effect on: enzyme activity; mode: inhibitor; concentration: 0.5 µM; baseline: control; quantity: remaining activity
PRKD3 (Homo sapiens, UniProt O94806): 72.8%
TAOK1 (Homo sapiens, UniProt Q7L7X3): 93.3%
NTRK2 (Homo sapiens, UniProt Q16620): 94.8%
PDGFRB (Homo sapiens, UniProt P09619): 93.7%
FGFR2 (Homo sapiens, UniProt P21802): 95.9%
MAP3K9 (Homo sapiens, UniProt P80192): 80.1%
SGK3 (Homo sapiens, UniProt Q96BR1): 94.5%
ULK1 (Homo sapiens, UniProt O75385): 87.2%
MAP4K5 (Homo sapiens, UniProt Q9Y4K4): 28.9%
HCK (Homo sapiens, UniProt P08631): 52.2%
RAF1 (Homo sapiens, UniProt P04049): 92.1%
ACVR1 (Homo sapiens, UniProt Q04771): 128%
INSRR (Homo sapiens, UniProt P14616): 96.8%
DSTYK (Homo sapiens, UniProt Q6XUX3): 106%
VRK1 (Homo sapiens, UniProt Q99986): 86.4%
RIPK2 (Homo sapiens, UniProt O43353): 36.7%
TNK2 (Homo sapiens, UniProt Q07912): 10.5%
DYRK2 (Homo sapiens, UniProt Q92630): 60%

Sample 3 — effect on: enzyme activity; mode: inhibitor; concentration: 10 µM; quantity: inhibition
Target: Calcium/calmodulin-dependent protein kinase type II subunit alpha (CAMK2A, Homo sapiens, UniProt Q9UQM7)
UniProt Q9UQM7, sequence (whole entry, looked up): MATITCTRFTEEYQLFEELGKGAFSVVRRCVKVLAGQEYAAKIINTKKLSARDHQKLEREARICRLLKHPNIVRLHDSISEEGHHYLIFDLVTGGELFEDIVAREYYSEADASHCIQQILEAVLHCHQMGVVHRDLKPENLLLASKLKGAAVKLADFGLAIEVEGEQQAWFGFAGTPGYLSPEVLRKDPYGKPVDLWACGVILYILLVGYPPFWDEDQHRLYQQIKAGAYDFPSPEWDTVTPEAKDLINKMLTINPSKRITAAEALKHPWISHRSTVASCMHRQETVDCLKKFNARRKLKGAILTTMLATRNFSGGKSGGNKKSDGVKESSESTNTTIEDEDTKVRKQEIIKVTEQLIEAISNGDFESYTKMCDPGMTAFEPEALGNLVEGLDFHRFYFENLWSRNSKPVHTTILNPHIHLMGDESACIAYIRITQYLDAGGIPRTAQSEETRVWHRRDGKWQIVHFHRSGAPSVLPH
O=C(O)CCCCC(=O)O: -22%
Cc1cccn2c(=O)c(-c3nnn[nH]3)cnc12: -5%
C=CCc1cc(OC)c(O[C@@H](C)[C@H](O)c2ccc(O)c(OC)c2)c(OC)c1: -16%
CC(C)[C@@H](C)/C=C/[C@@H](C)[C@H]1CC[C@H]2C3=CC=C4C[C@@H](O)CC[C@]4(C)[C@H]3CC[C@]12C: 33%
COC(=O)C1=C(C)NC(C)=C(C(=O)OCCN2CCN(C(c3ccccc3)c3ccccc3)CC2)C1c1cccc([N+](=O)[O-])c1 (centres unmarked): -2%
CC(C)C(=O)Nc1ccc([N+](=O)[O-])c(C(F)(F)F)c1: -3%
CC1=CC(=O)CC(C)(C)C1=O: 3%
N#Cc1c(N2C[C@@H]3NCCO[C@H]3C2)c(F)cc2c(=O)c(C(=O)O)cn(C3CC3)c12: -2%
N#C[C@@H]1C[C@@H]2C[C@@H]2N1C(=O)[C@@H](N)C12CC3CC(CC(O)(C3)C1)C2: 4%
Cc1cc(O)c(C(=O)CCC(C)C)c(=O)o1: -16%
CC(C)(C)CC(=O)OCC(=O)[C@@]12OC(C)(C)O[C@@H]1C[C@H]1[C@@H]3CCC4=CC(=O)C=C[C@]4(C)[C@@]3(F)[C@@H](O)C[C@@]12C: -2%
CC(C)(C)c1cc(-c2cc(-c3ccc(C(=O)O)cc3)ccc2OCCO)ccc1N1CCCC1: -4%
CC(C)NCC(O)c1cc(O)cc(O)c1 (centres unmarked): -8%
COc1nccnc1CC(C)C: 36%
C[C@]12C=CC(=O)C=C1CC[C@@H]1[C@@H]2C(=O)C[C@@]2(C)[C@H]1CC[C@]2(O)C(=O)CO: -8%

Sample 4 — Compound: O=c1nc(-c2ccccn2)sc2ccccc12; technique: competition with immobilised ligand; concentration: 1 µM; quantity: remaining binding
TSSK3 (Homo sapiens, UniProt Q96PN8); binding: 86%
TLK1 (Homo sapiens, UniProt Q9UKI8); cell-free assay: 93%
MAP3K3 (Homo sapiens, UniProt Q99759); binding: 77%
TAOK2 (Homo sapiens, UniProt Q9UL54); binding: 73%
PIK3CG (Homo sapiens, UniProt P48736); cell-free assay: 100%
EGFR (Homo sapiens, UniProt P00533); cell-free assay: 70%
SIK2 (Homo sapiens, UniProt Q9H0K1); binding: 86%
MKNK1 (Homo sapiens, UniProt Q9BUB5); binding: 89%
RIPK1 (Homo sapiens, UniProt Q13546); binding: 83%
STK33 (Homo sapiens, UniProt Q9BYT3); binding: 87%
STK35 (Homo sapiens, UniProt Q8TDR2); binding: 79%
FGFR3 (Homo sapiens, UniProt P22607, G697C); cell-free assay: 100%
CDK4 (Homo sapiens, UniProt P11802); binding: 100%
PAK3 (Homo sapiens, UniProt O75914); cell-free assay: 84%
MTOR (Homo sapiens, UniProt P42345); cell-free assay: 100%
CDK8 (Homo sapiens, UniProt P49336); binding: 36%
PIK3CA (Homo sapiens, UniProt P42336); cell-free assay: 100%
EPHA6 (Homo sapiens, UniProt Q9UF33); cell-free assay: 100%
WNK2 (Homo sapiens, UniProt Q9Y3S1); binding: 100%
RIPK2 (Homo sapiens, UniProt O43353); binding: 82%
PIK3CA (Homo sapiens, UniProt P42336, C420R); cell-free assay: 94%
CSK (Homo sapiens, UniProt P41240); cell-free assay: 100%
ROS1 (Homo sapiens, UniProt P08922); cell-free assay: 100%
STK36 (Homo sapiens, UniProt Q9NRP7); binding: 82%
Tyrosine-protein kinase ABL1, phosphorylated (ABL1, Homo sapiens, UniProt P00519, E255K); binding: 100%

A few entries again (sample 4):
FGFR3 (Homo sapiens, UniProt P22607, G697C); cell-free assay: 100%
CDK4 (Homo sapiens, UniProt P11802); binding: 100%
PAK3 (Homo sapiens, UniProt O75914); cell-free assay: 84%
MTOR (Homo sapiens, UniProt P42345); cell-free assay: 100%
CDK8 (Homo sapiens, UniProt P49336); binding: 36%
PIK3CA (Homo sapiens, UniProt P42336); cell-free assay: 100%
EPHA6 (Homo sapiens, UniProt Q9UF33); cell-free assay: 100%
WNK2 (Homo sapiens, UniProt Q9Y3S1); binding: 100%
